Experimental data pooled from the literature.
Parts stem from different laboratories: compare values within a part only. Substitutions count along the parent as printed.

Sample 1
Target: CCNE2, cyclin fold, Cln2 fusion (human)
Technique: yeast growth competition, sequencing
Sample: yeast
Setting: strong parent motif
Reference: not given
Reading: higher = stronger binding
Quantity: normalised enrichment score
Starting sequence: SCAPER docking peptide (human); SNARRSLNFGGST; partner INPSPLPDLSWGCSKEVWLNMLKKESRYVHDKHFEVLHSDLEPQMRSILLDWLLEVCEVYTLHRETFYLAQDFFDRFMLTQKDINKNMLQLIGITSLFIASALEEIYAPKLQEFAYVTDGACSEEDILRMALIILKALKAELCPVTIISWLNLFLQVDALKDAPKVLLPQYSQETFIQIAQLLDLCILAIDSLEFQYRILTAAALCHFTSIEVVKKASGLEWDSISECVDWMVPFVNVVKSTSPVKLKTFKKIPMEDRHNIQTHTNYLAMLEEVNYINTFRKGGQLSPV
SNARRSTNFGGST [L7T]: 0.766
SNAKRSLNFGGST [R4K]: 1.01
ANARRSLNFGGST [S1A]: 1.06
SNARRNLNFGGST [S6N]: 1.81
SCARRSLNFGGST [N2C]: 1.03
SHARRSLNFGGST [N2H]: 1.63
SNARRTLNFGGST [S6T]: 2.37
SNARRSLNFGGWT [S12W]: 1.04
SNARRSLNFGGNT [S12N]: 1.88
SNAIRSLNFGGST [R4I]: 1.19
SNQRRSLNFGGST [A3Q]: -0.789
SNARRSLNFGGAT [S12A]: 1.78
SNARRSLNNGGST [F9N]: -0.275
SNARRSKNFGGST [L7K]: 0.664
SNARRYLNFGGST [S6Y]: 1.69
SNARRSLIFGGST [N8I]: 1.52
SNARRSSNFGGST [L7S]: 0.987

Sample 2
Target: CEP164, C-terminal peptide (human)
Technique: DHFR complementation, deep sequencing
Sample: yeast
Setting: single substitutions, model-inferred values
Reference: wild type
Reading: higher = weaker binding
Quantity: binding free energy change
Starting sequence: PDZK1, PDZ domain 2 (human); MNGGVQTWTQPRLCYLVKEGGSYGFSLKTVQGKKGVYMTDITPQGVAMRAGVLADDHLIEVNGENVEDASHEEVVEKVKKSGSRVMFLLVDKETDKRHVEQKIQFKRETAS; partner HNRVKVYRF
S70W: -0.325 kcal/mol
V78L: 1.62 kcal/mol
E72L: 0.535 kcal/mol
L53A: 0.315 kcal/mol
G32F: 0.504 kcal/mol
F87P: 1.06 kcal/mol
E60P: 0.522 kcal/mol
H98W: -0.185 kcal/mol
K79S: 0.526 kcal/mol
G32A: 0.558 kcal/mol
T9Y: 0.0585 kcal/mol
G32V: 0.864 kcal/mol
L13I: 0.0133 kcal/mol
G63V: 0.599 kcal/mol
G35T: 1.16 kcal/mol
G3E: -0.201 kcal/mol
T94G: -0.0576 kcal/mol

Sample 3
Target: Histone acetyltransferase KAT6A, winged helix 1, GST fusion (KAT6A, Homo sapiens, UniProt Q92794, residues 1-85)
Technique: protein binding microarray
Molecule type: double-stranded DNA, one strand shown
Sample: in vitro
Tested at: not given
Setting: 8-mer, flanks averaged, mean of 2 arrays, mostly near background
Reference: not given
Reading: higher = stronger binding
Quantity: E-score
Construct (chain): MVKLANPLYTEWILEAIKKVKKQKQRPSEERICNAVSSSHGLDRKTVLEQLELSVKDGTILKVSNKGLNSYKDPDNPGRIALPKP
GACCGACA: 0.176
ACGAGCTG: -0.162
AACTTGTA: 0.0802
GACACGCA: 0.18
GTTCTTGA: -0.114
AACGAAGT: -0.223
AGGACTCA: -0.108
ATGCGGAG: 0.143
ATCCTTAG: -0.121
GTTTTCTA: -0.0663
AAATGTTA: -0.107
AGTAAATC: -0.151
ATGACGAG: 0.00102

Other studies, line by line
PhoQ, residues 284 288 289 292 302 303 SNSSNI — fold induction (PhoP, residues 12 14 15 18 19 LYFRQ (Escherichia coli, UniProt P23836); Sort-seq, measured: YFP reporter; E. coli; PhoQ-PhoP variant library, with: 10 µM Mg2+; reference: high Mg2+ state, higher = stronger signaling): 0.639

Excerpt of the above (sample 3):
ATCCTTAG: -0.121
AGTAAATC: -0.151
AACGAAGT: -0.223
